Assay results collected from several papers.
Parts stem from different laboratories: compare values within a part only.

Block 1
Target: Sal-like protein 4, full length isoform A (SALL4, Homo sapiens, UniProt Q9UJQ4, residues 1-1053)
Sequence of UniProt Q9UJQ4 (whole entry, looked up): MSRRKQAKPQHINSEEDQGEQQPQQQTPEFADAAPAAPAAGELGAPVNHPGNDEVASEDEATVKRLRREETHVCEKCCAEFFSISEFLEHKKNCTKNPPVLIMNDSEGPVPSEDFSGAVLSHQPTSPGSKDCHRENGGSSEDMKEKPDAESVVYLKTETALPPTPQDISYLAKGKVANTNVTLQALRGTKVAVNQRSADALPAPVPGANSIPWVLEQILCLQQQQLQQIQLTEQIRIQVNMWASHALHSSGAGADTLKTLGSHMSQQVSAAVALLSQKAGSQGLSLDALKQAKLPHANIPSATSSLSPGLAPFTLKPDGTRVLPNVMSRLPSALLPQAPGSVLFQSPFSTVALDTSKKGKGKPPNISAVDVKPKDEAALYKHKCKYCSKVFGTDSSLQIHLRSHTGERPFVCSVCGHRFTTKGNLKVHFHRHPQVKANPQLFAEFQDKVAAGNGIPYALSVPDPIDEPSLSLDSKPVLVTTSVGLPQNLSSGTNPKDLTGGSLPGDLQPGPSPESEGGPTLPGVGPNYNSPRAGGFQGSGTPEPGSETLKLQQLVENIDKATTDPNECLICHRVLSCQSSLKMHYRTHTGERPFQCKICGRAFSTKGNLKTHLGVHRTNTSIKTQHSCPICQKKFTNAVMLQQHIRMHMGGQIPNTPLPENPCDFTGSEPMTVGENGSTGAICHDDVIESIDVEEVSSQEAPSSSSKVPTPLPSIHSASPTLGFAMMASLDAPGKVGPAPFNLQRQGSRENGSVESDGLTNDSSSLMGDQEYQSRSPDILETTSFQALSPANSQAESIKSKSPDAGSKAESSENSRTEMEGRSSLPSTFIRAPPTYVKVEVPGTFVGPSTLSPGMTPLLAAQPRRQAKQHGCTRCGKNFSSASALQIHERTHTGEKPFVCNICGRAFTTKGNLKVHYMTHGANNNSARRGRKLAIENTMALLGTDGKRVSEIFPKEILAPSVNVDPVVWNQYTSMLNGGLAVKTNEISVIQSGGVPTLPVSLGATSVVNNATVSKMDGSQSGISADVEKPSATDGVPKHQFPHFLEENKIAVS
Method: universal PBM
Form: double-stranded DNA, one strand shown
Sample: in vitro
Concentration: 600 nM
Setting: 8-mer, flanks averaged, mean of replicates
Direction: higher = stronger binding
Oligonucleotide | E-score
GCTTATAC | 0.173
CGTTTTGA | 0.176
CAAGTGTG | 0.17
GTGAACAC | -0.155
AATCAATA | 0.352
CCCGAGAG | -0.16
ACGGTGCA | -0.0572
AGTGGGGA | -0.164
GCCGACCA | -0.315
AAAACTTT | 0.184
CATCGCAG | -0.148
CAATGACC | -0.116
AAGGCTCA | -0.0646
TCTCACAA | 0.161
AATGATCG | -0.0435
ATCCTAAC | 0.0853
GGCCGTTA | -0.0345
ACGAGAGT | 0.0695
AAAAGTTC | 0.223
TGCGTCAA | 0.0603
GTTCTTGA | 0.14
CGTTCACA | 0.0962
CTATTCCA | 0.151
AGTCCTTG | -0.058

Block 2
Target: RNA binding protein fox-1 homolog 2, RRM domain, GST-SBP tag (RBFOX2, Homo sapiens, UniProt O43251-10, residues 100-194)
Method: RNA Bind-n-Seq
Form: RNA
Sample: in vitro
Concentration: 365 nM
Setting: natural RNA segment, single round, ends assumed
Reference: no-protein control
Direction: higher = stronger binding
All sequences stand within: GGGAGUUCUACAGUCCGACGAUC … UGGAAUUCUCGGGUGCCAA
Residues (chain): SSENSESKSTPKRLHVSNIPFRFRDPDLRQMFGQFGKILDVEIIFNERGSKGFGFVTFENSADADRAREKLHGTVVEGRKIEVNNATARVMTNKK
Oligonucleotide | RBNS enrichment (R)
ACAUCCCUGCUUUUGACUGAACACUGCACAGAAGCCCCUGAAAUAGGGCCUCUCCCUCGUUGUCAUGUGCACUUUCCGUCUGAGGGAACUGCAGCUGCUGGAAGGCCAGC | 0.356
AGAACAGCACAGUGAAGAGUGAAAUGGAGAAAACUCUCACGGUGAAGCAGCUGUUGGAACUCCUGGUAUUAAUGGAGCCAGAGUGACAUGCAUCCUUCGUCUGUCUCAUC | 1.53
CUCAGAGGAUGAACUCCCCCCUCAAGUGCACAAGGUAUAGGCAAGGCGGUAGCUGGUUCCCAUGCUCCAGGAUGGAGGUGGCAGCUGCCCUGCCAUCCCUUCUGUCUGCC | 0.207
UCGGAUUCCUUGUGUCCUUUGUGCUAGUGUAACCCGGGACUGGAAUGUAAAGUGAAGUUCGGAGCUCUGAGCACGGGCUCUUCCCGCCGGGUCCUCCCUCCCCAGACCCC | 0.735
UGCGUGGUCUUUCUCCUCCUUUUCAAAGCAAUAGCCGCCGGGUCUGCAAAGCCCUGUCAGACAGACUGGGCCCUUCCAAGGUCAAGCCAUGUGUCUGAUGACAUUCCUGG | 0.211
UGGGAGGCAAGGGAAUAGGAAAGCCAAAGGCCAAGCAGGAACUCUGUGCCUGCUCUCUGCUCCUGUUCUUUCCCUCCCAUACCUGGCUGCUGUGAGGACACUCACCUUGU | 0.171
GGAGUGUUCAUGGGGAUGUGGGCGAGGUGGGGCACUUUGAAGGAAUGGCGGUCUGCUGGUGCCCUCGAAGGGGCAUCCUUCCUGGUCUUCGCUGACCCAGAGGCGCUGUG | 0.393
UUACAGUGGCAUGAUGGUGACCUGUGCAGUCACUGAGCUGUAGGAGUGAGGCAUGUGCUGCACGUCCCUGUCGUACUUAGAGACCUGGCCGGUGCCCUGCGCGGGGCCUC | 38

Block 3
Target: Histone acetyltransferase KAT6A, winged helix 1, GST fusion (KAT6A, Homo sapiens, UniProt Q92794, residues 1-85)
Method: protein binding microarray
Form: double-stranded DNA, one strand shown
Sample: in vitro
Concentration: not given
Setting: 8-mer, flanks averaged, mean of 2 arrays, mostly near background
Reference: not given
Direction: higher = stronger binding
Residues (chain): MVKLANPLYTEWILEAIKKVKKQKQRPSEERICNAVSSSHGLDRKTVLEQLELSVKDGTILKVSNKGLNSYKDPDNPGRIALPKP
Oligonucleotide | E-score
AAAATGAC | -0.143
CACAACGC | 0.108
CTGGGTAA | -0.183
ACACGCTG | -0.0193
AAGCGGAA | 0.215
AGTGCGCC | 0.346
GAAACACC | -0.00696
AGGACAGC | -0.0941
AGTTACAA | 0.0396
CTGCGATA | -0.0756
GAGAGACA | -0.101
CCAGAGAA | -0.149
CGCGGTCC | 0.421
ACTTTAGG | -0.164
CGGACCAA | 0.0114
CGCAGTCC | 0.13
CTAGTCAC | -0.163
CCAGCCGA | 0.164
GTCACAGA | -0.113
ATCACTCC | -0.152
CCGAATCC | 0.121
CAAAATTC | -0.0958

Block 4
Target: Fragile X messenger ribonucleoprotein 1, C-terminal low-complexity region (Fmr1, Mus musculus, UniProt P35922)
Method: RNA Bind-n-Seq
Form: RNA
Sample: in vitro
Concentration: 200 nM
Setting: whole 134-nt RNA, ends assumed
With: 150 mM LiCl
Reference: input library
Direction: higher = stronger binding
Each molecule: 7-deaza-guanosine replaces G
All sequences stand within: GGGAGUUCUACAGUCCGACGAUC … UGGAAUUCUCGGGUGUCAAGG
Oligonucleotide | log2 enrichment
CUGUGCUACACAUCGUAUGUACCGAAUCGGGGAAAAAGGGGAAAAAGGGGUUUUUUUGGGGAAAGUAUUAUGUUACGCCGUUCGGAUCUG | -0.502
UCCUGUGCUACACAUCGUAUGUACCGAAUCGGGAAAAAAGGAAAAAAGGAAAAAAGGGGAAAGUAUUAUGUUACGCCGUUCGGAUCUGCA | -1.01
UUGGGUCCAGACUGCGCCACAGCCUCUCGGGAGACGUGGGCCCUCGGAACCUUUUUAGUGCCGGACUCCGGGCCGCAGGCAGUCCCGCGG | -3.61
UCCUGUGCUACACAUCGUAUGUACCGAAUCGGGAAAAAAAGGGAAAAAGGGAAAAAGGGAAAGUAUUAUGUUACGCCGUUCGGAUCUGCA | 0.368
GCAGGAAGUAAAAACAAAUGGAAAUGCUUCGGAUAGUGGCAGGGGUGGUGGUUGCUAAGGAAAGGGUGGGAUGGGAGUGGGUAAAGAGUU | 1.58
UCCUCAAGUCCUGUGCUACACAUCGUAUGUACCGAAUCGGAGGGAGGAGGGAAAGUAUUAUGUUACGCCGUUCGGAUCUGCACUUCCAGC | -1.77
UGGGAGAUGGAUUUUGUUUAUUUUUUUAGCUCAUUUCCAGGGGUGGGAAUUUUUUUUUAAUAUGUGUCAUGAAUAAAGUUGUUUUUGAAA | -0.0933
UUCUUUGCCCAACGGGGCCGUGGAUACCUGCCUUUUAAUUCUUUUUUAUUCGCCCAUCGGGGCCGCGGAUACCUGCUUUUUAUUUUUUUU | 1.46

A few entries again (block 3):
Oligonucleotide | E-score
CTGCGATA | -0.0756
CCAGAGAA | -0.149
GAAACACC | -0.00696
ACTTTAGG | -0.164
GAGAGACA | -0.101
AGTGCGCC | 0.346
AAAATGAC | -0.143
CTAGTCAC | -0.163
